Assay results pooled from the literature.
Each line is one published result; not all experiments were run side by side. ± marks the error that the study gave.

O=C1/C(=C/c2ccc(B(O)O)cc2)CC/C1=C\c1ccc(B(O)O)cc1
particle size (water): 2880 nm

CCCCCCCCCCCCCCCCCC(=O)N[C@@H](CCCNC(=N)N)C(=O)N[C@@H](CCCNC(=N)N)C(=O)N[C@@H](CCCNC(=N)N)C(=O)N[C@@H](CCCNC(=N)N)C(=O)N[C@@H](CCCNC(=N)N)C(N)=O
hydrodynamic radius (dynamic light scattering; self-assembled micelles; 25 °C): ~99 nm

COc1ccc(/C=C/c2ccc(-c3ccc(C)cn3)nc2)cc1
radiative decay rate constant (TCSPC; water, HEPES 100 mM; pH 7.4): 0.04 ns⁻¹

C[C@H](NC(=O)COC(=O)[C@H](C)NC(=O)CO)C(=O)O
depolymerization half-life (water; pH 3, 50 °C): 53.5 h

NCCCC(=O)OCC(=O)c1ccc(O)cc1F.O=C(O)C(F)(F)F
quantum yield (photolysis, refers to: rearranged acid appearance; unbuffered water): 0.26

CCCC1OC2CC3C4CCC5=CC(=O)C=CC5(C)C4C(O)CC3(C)C2(C(=O)COC(=O)CN)O1 (centres unmarked)
time to near-complete hydrolysis (rat lung homogenate; 200 µg/mL, 37 °C): ≤ 12 h

CC(C)c1cnc(-c2cc(Cl)ccc2F)cc1Nc1ccncc1C(=O)NC(CO)CO
patients with related SAE (refers to: hepatic haemorrhage; human patients; oral, dose not given, grade 3): 2.4%

CC(C)(O)c1ncc([S@](N)(=O)=NC(=O)Nc2c3c(cc4c2CCC4)CCC3)s1
Cmax (healthy human; oral, 10 mg once daily, day 14, capsule formulation, geometric mean): 1040 ng/mL

COc1ccc2cc(-c3ccc(-c4ccc(C)cn4)nc3)oc2c1
fluorescence quantum yield (EtOH; added: quinine bisulfate reference): 0.83

CCOC(=O)c1ccc(-n2cc(Cn3c(=O)c(Cc4ccccc4)nc4ccccc43)nn2)cc1
safe concentration (MTT; rat primary colonocytes, Albino rat, male; 72 h, concentration at 100% viability): 0.016 ± 0.002 µM

NCCCC(=O)OCC(=O)c1cc(F)c(O)c(F)c1F.O=C(O)C(F)(F)F
quantum yield (photolysis, refers to: GABA appearance; aqueous HEPES buffer with LiClO4; pH 8.2): 0.02

Cc1cc(N)nc(C[C@@H]2CNC[C@@H]2OCCCCCc2cccc(N)n2)c1
metabolic rate (in vitro metabolic stability): 0.02 nmol/min/mg protein

CCCC[C@H](NC(=O)[C@H](CC(C)C)N(C)C(=O)CNC(=O)[C@@H](NC(=O)[C@H](Cc1ccccc1)NC(=O)[C@H](CCCCN)NC(=O)[C@@H](N)CC(=O)O)C(C)C)C(N)=O
Cmax ratio (rat; 100 µg/kg IV, 300 µg/kg SC; relative to: IV over SC): 4

Oc1cccc(-c2cccc(O)n2)n1.[Cl-].[Cl-].[Ru+2].c1cnc2c(c1)ccc1cccnc12.c1cnc2c(c1)ccc1cccnc12
logD (shake flask; octanol/acetate buffer; pH 5.00): 0.68

COc1cc(NC(C)=O)c2c(c1O)-c1c(OC)c(OC)cc3c1C(C2)N(C)CC3 (centres unmarked)
remaining compound (rat kidney homogenate; 0.5 µg/mL, time not given, three freeze-thaw cycles): 101 ± 1.9%

COc1ccnc(C[S+]([O-])c2nc3cc(-n4cccc4)ccc3[nH]2)c1C (centres unmarked)
Cmax ratio (male Sprague Dawley rats, plasma; oral, 10 mg/kg ilaprazole racemate; relative to: compound over R-ilaprazole): 1.28

Cc1ccccc1/N=N/c1ccc(/N=N/c2c(O)ccc3ccccc23)c(C)c1
stability deviation (rat whole blood; 5.0 µg/L, 30 days, -20 °C, long-term storage): 3.9%

Cc1ccc(C(C)C)cc1.O=C(N=P(c1ccccc1)(c1ccccc1)c1ccccc1)c1ccccn1.[Cl-].[Cl-].[Ru+2]
ruthenium level (NOD scid mice, liver; dose not given, end of efficacy study): < 5 µg/g

O=c1nc(NO)ccn1[C@@H]1O[C@H](CO)[C@@H](O)[C@H]1O
Cmax ratio (male Wistar rats, plasma; oral, 30 mg/kg; relative to: CFA-arthritic over normal rats): 1.1 fold

CC(C)[C@H](NC(=O)[C@@H]1CCCN1C(=O)[C@H](CCCNC(=N)N)NC(=O)[C@H](CS)NC(=O)[C@H](Cc1c[nH]c2ccccc12)NC(=O)[C@H](CCCNC(=N)N)NC(=O)[C@@H](Cc1ccccc1)NC(=O)[C@H](Cc1c[nH]cn1)NC(=O)[C@H](CCC(=O)O)NC(=O)[C@H](CS)NC(=O)[C@H](CS)NC(=O)CNC(=O)[C@@H]1CC(=O)N[C@@H](CCCNC(=N)N)C(=O)NCC(=O)N[C@@H](CC(=O)O)C(=O)N[C@H](Cc2ccc(O)cc2)C(=O)N1)C(N)=O [technetium-99m labelled]
tissue uptake (C57 mouse, female, B16/F1 melanoma, lung; intravenous, 0.037 MBq, 2 h): 1.67 ± 0.71 %ID/g

CC(C)[C@H](NC(=O)CNC(=O)[C@H](CCC(N)=O)NC(=O)[C@H](C)N)C(=O)O
AUC(0-inf) (human, both sexes, plasma; intravenous infusion, 45 mg/kg/h, 2 h infusion, geometric mean): 1530 ng·h/mL

NCCCC(=O)OCC(=O)c1ccc(O)c(F)c1F.O=C(O)C(F)(F)F
quantum yield (photolysis, refers to: GABA appearance; aqueous HEPES buffer with LiClO4; pH 7.3): 0.11

N=C(N)NCCC[C@@H]1NC(=O)[C@H](Cc2c[nH]c3ccccc23)NC(=O)[C@@H](CC2CCCCC2)NC(=O)[C@@H]2CCCN2C(=O)[C@@H](NC(=O)CCc2ccccc2)CCCNC1=O
distribution rate constant k12 (C57BL/6J mice, plasma; intraperitoneal, 1 mg/kg, two-compartment model): < 0.001 h⁻¹

COC(=O)c1ccc(-c2cn(Cc3cc(Cl)ccc3O[11CH3])nn2)cc1
distribution volume (PET, Logan plot, t*=40 min; rhesus monkey, brain Insula; dose not given): 0.548 mL/cm³

O=C1CCc2ccc(OCCCCN3CCN(c4cccc(Cl)c4Cl)CC3)cc2N1CO
conversion half-time (1H NMR; phosphate buffer; pH 7.4, 37 °C): ≤ 15 min

Oc1ccc2ccccc2c1/N=N/c1ccccc1
measured concentration (rat whole blood; 16.0 µg/L, 30 days, -20 °C, long-term storage): 16 µg/L

CC[C@H](C)[C@H](NC(=O)[C@H](CC(C)C)NC(=O)[C@H](Cc1c[nH]c2ccccc12)NC(=O)[C@H](C)NC(=O)[C@@H](NC(=O)[C@H](Cc1ccccc1)NC(=O)[C@H](CC(=O)O)NC(=O)[C@H](CCCNC(=N)N)NC(=O)[C@H](C)NC(=O)[C@H](C)NC(=O)[C@H](CC(C)C)NC(=O)[C@H](C)NC(=O)[C@H](CC(=O)O)NC(=O)[C@H](CC(C)C)NC(=O)[C@@H](NC(=O)[C@@H](NC(=O)[C@H](C)NC(=O)[C@H](CC(C)C)NC(=O)[C@H](CCC(=O)O)NC(=O)[C@H](CO)NC(=O)[C@H](CO)NC(=O)[C@H](Cc1ccccc1)NC(=O)[C@@H](NC(=O)CNC(=O)[C@H](CCC(=O)O)NC(=O)CNC(=O)[C@@H](N)Cc1c[nH]cn1)[C@@H](C)O)[C@@H](C)O)[C@@H](C)CC)[C@@H](C)CC)C(=O)N[C@@H](C)C(=O)N[C@H](C(=O)N[C@@H](CCCCN)C(=O)N[C@H](C(=O)N[C@H](C(=O)N[C@@H](CC(=O)O)C(=O)N[C@@H](CCCCN)C(=O)O)[C@@H](C)O)[C@@H](C)CC)[C@@H](C)O
terminal half-life (healthy human subjects, plasma; subcutaneous, 10 mg once weekly, day 36 after 6 doses, steady state, mean): 255 h

Clc1ccc2ccc3[n+](c2c1)[Ir-3]12([c]4ccccc4-3)([c]3ccccc3-c3ccc4ccc(Cl)cc4[n+]31)[n+]1ccccc1-c1cccc[n+]12.F[P-](F)(F)(F)(F)F
relative organ weight (BALB/c mice, 4T1 tumour; 2 mg/kg/day; relative to: vehicle): no effect

CC(C)[C@H](NC(=O)[C@@H]1CCCN1C(=O)[C@H](CCCNC(=N)N)NC(=O)[C@H](CS)NC(=O)[C@H](Cc1c[nH]c2ccccc12)NC(=O)[C@H](CCCNC(=N)N)NC(=O)[C@@H](Cc1ccccc1)NC(=O)[C@H](Cc1c[nH]cn1)NC(=O)[C@H](CCC(=O)O)NC(=O)[C@H](CS)NC(=O)[C@H](CS)NC(=O)COCCOCCNC(=O)[C@@H]1CC(=O)N[C@@H](CCCNC(=N)N)C(=O)NCC(=O)N[C@@H](CC(=O)O)C(=O)N[C@H](Cc2ccc(O)cc2)C(=O)N1)C(N)=O [technetium-99m labelled]
tumour-to-tissue ratio (nude mouse, M21 melanoma xenograft, tumour over kidneys; intravenous, 0.037 MBq, 2 h; relative to: tumour over kidneys): 0.08 ± 0.01

NC[C@@H](C(=O)Nc1ccc(-c2cn[nH]c2)cc1)c1ccccc1
conjunctival redness score (OECD 405 eye irritation; New Zealand White rabbit, eye; topical, 0.1%, 97 h (day 5), scale 0 to 3; direction not given): 1

COc1cc(-c2nc3ccccc3s2)cc(CN2CCN(CC(=O)O)CCN(CC(=O)O)CC2)c1O
pKa2 (UV-Vis pH titration; 25 °C, ionic strength 0.1 M NaCl): 6.44

CCCC(CCC)NC(=O)c1ccc(OC2OC(C(=O)O)C(O)C(O)C2O)c(O)c1 (centres unmarked)
Cmax ratio (female Sprague-Dawley rats, plasma; oral, 50 mg/kg of parent drug; relative to: 50 over 20 mg/kg dose): 1.33

Brc1ccc(Nc2nc(NN=Cc3c[nH]c4ccccc34)nc(N3CCOCC3)n2)cc1
metabolic stability (rat liver microsomes): stable

COc1cc2c(cc1OC)CN(CCCCn1ccc3cc(OCC[18F])ccc31)C2
kidney uptake (male ICR mice; intravenous, 60 min post-injection): 6.18 ± 1.02 %ID/g

COC(=O)C(c1ccccc1Cl)N1CCC(SCC(=O)c2cccc(OC)c2)C(=CC(=O)O)C1 (mixture of isomers)
deviation from nominal (HPLC-MS/MS; feline citrate plasma; 100 ng/mL, 6 h, -20 °C, storage stability): -5%

CCOC(=O)c1[nH]c(C)c(/C=C/c2c(I)c(C)c3n2[B-](F)(F)[N+]2=C(C)C(I)=C(C)C2=C3c2cc(OC)cc(OC)c2)c1C
emission maximum (dichloromethane): 628 nm

Cn1c(=O)oc2ccc(-c3ccc(CC(C#N)NC(=O)C4CNCCCO4)c(F)c3)cc21 (centres unmarked)
abdominal pain incidence (human; oral, 20 mg once daily, TEAE, multiple ascending dose): 0%

COc1cc(-c2nc3ccccc3s2)cc(CN(Cc2ccccn2)Cc2ccccn2)c1O
pKa2 (methanol-water; 50 µM, 0.1 M NaCl): 6.13

CC/C=C\C/C=C\C/C=C\C/C=C\C/C=C\CCCCOC(CC)C(=O)O (centres unmarked)
tissue concentration (radioactivity, 14C-labelled; Wistar rat, male, kidney cortex; oral, 100 mg/kg, 1 h): 34 µg equivalents/g tissue

CC(=O)[CH](C(C)=O)[Pt-2]1([S+](C)C)[O]C(C)=CC(C)=[O+]1 (centres unmarked)
fecal excretion (atomic absorption spectroscopy, refers to: Pt; rat, feces; 72 h; relative to: dose): 9%

COCCOCCOCCOCCC(=O)NCc1cc(CNC(=O)CCOCCOCCOCCOC)cc(-c2cc3cc4nc(c(-c5ccc(CCC(=O)O)cc5)c5[nH]c(cc6nc(c(OC)c2[nH]3)CC6(C)C)cc5-c2cc(CNC(=O)CCOCCOCCOCCOC)cc(CNC(=O)CCOCCOCCOCCOC)c2)CC4(C)C)c1
B band absorption maximum (DMF; room temperature): 366 nm

Excerpt of the above:
Brc1ccc(Nc2nc(NN=Cc3c[nH]c4ccccc34)nc(N3CCOCC3)n2)cc1
metabolic stability (rat liver microsomes): stable

CC(C)[C@H](NC(=O)[C@@H]1CCCN1C(=O)[C@H](CCCNC(=N)N)NC(=O)[C@H](CS)NC(=O)[C@H](Cc1c[nH]c2ccccc12)NC(=O)[C@H](CCCNC(=N)N)NC(=O)[C@@H](Cc1ccccc1)NC(=O)[C@H](Cc1c[nH]cn1)NC(=O)[C@H](CCC(=O)O)NC(=O)[C@H](CS)NC(=O)[C@H](CS)NC(=O)COCCOCCNC(=O)[C@@H]1CC(=O)N[C@@H](CCCNC(=N)N)C(=O)NCC(=O)N[C@@H](CC(=O)O)C(=O)N[C@H](Cc2ccc(O)cc2)C(=O)N1)C(N)=O [technetium-99m labelled]
tumour-to-tissue ratio (nude mouse, M21 melanoma xenograft, tumour over kidneys; intravenous, 0.037 MBq, 2 h; relative to: tumour over kidneys): 0.08 ± 0.01

N=C(N)NCCC[C@@H]1NC(=O)[C@H](Cc2c[nH]c3ccccc23)NC(=O)[C@@H](CC2CCCCC2)NC(=O)[C@@H]2CCCN2C(=O)[C@@H](NC(=O)CCc2ccccc2)CCCNC1=O
distribution rate constant k12 (C57BL/6J mice, plasma; intraperitoneal, 1 mg/kg, two-compartment model): < 0.001 h⁻¹

COCCOCCOCCOCCC(=O)NCc1cc(CNC(=O)CCOCCOCCOCCOC)cc(-c2cc3cc4nc(c(-c5ccc(CCC(=O)O)cc5)c5[nH]c(cc6nc(c(OC)c2[nH]3)CC6(C)C)cc5-c2cc(CNC(=O)CCOCCOCCOCCOC)cc(CNC(=O)CCOCCOCCOCCOC)c2)CC4(C)C)c1
B band absorption maximum (DMF; room temperature): 366 nm

COc1ccc2cc(-c3ccc(-c4ccc(C)cn4)nc3)oc2c1
fluorescence quantum yield (EtOH; added: quinine bisulfate reference): 0.83

COc1cc(-c2nc3ccccc3s2)cc(CN(Cc2ccccn2)Cc2ccccn2)c1O
pKa2 (methanol-water; 50 µM, 0.1 M NaCl): 6.13
